# Measured values from different studies.
# Each line is one published result; not all experiments were run side by side. Several values in a cell are separate wells, animals, samples, runs or records. ± gives the spread as reported.
Structure (SMILES),assay,test system,conditions,how to read,measurement,value
Cc1n[nH]c2ccc(-c3cc(OC[C@@H](N)Cc4ccccc4)cnc3-c3ccoc3)cc12,"kinase binding, competitor, MIB/MS competition, measured: KIN3",Candida albicans cell lysate,100 nM,relative to: DMSO,log2 fold change,0.0483
Cc1ccc(C(=O)Nc2ccnc(S(N)(=O)=O)c2)c(N2CCCC(F)(F)CC2)n1,C-nociceptor recordings,rhesus macaque,dose not given,,conduction velocity,no effect
CO[C@H]1CC[C@H](N2C(=O)CNc3ncc(-c4ccc(C(C)(C)O)nc4)nc32)CC1,flow cytometry,"stimulated B cells, human, blood","60 mg single dose, 5 h, mean",relative to: baseline,pS6RP change from baseline,-71.9%
CC(CCc1ccc(O)cc1)NCCc1ccc(O)c(O)c1 (centres unmarked),,anaesthetised instrumented rat,"iv infusion, 1 µg/kg/min, 15 min, unit not given",relative to: baseline,cardiac output change,3.5 ± 1
O=C(O)CNC(=O)Cc1ccccc1,,"ventricular cardiomyocytes, C57BL/6 mouse","dose not given, 0.544 s",,sarcomere length,1.62 µm
Cc1cnc(N2CC3(CCOCC3)C2)c(C(=O)Nc2ccc(C(=O)N3CCc4cc(C(=O)Nc5c(C)cccc5F)sc4-c4ccccc43)cc2)c1,measured: IL-15,"human RSV infection, nasal wash","dose not given, AUC, ITT-IS population",relative to: placebo,inhibition,31%
OC(CCN1CCCCC1)(c1ccccc1)C1CC2C=CC1C2 (centres unmarked),resting-state EEG,healthy elderly humans,"oral, 4 mg, eyes closed, LS mean",,"EEG power, alpha, Fz-Cz",6.7 µV²
NC(=O)c1cnc2[nH]ccc2c1N[C@@H]1[C@@H]2CC3C[C@H]1C[C@@](O)(C3)C2,flow cytometry,"Japanese healthy men, blood","oral, 30 mg twice daily, 72 h after day 7 dose",relative to: baseline,CD4+ memory T-cell change,-0.83%
O=C1CCc2ccc(OCCCCN3CCN(c4cccc(Cl)c4Cl)CC3)cc2N1,,patients CYP2D6 UM,6 months,,stopping or switching,45%
[Cl-].[Cl-].[Pt+2].[Ru+2].c1ccc(-c2nccnc2-c2ccccn2)nc1.c1cnc2c(c1)ccc1cccnc12.c1cnc2c(c1)ccc1cccnc12,"chloride substitution, UV-vis kinetics",aqueous buffer,"concentration not given, pH 7.2, first substitution step, together with: guanosine 5'-monophosphate",,negative activation entropy,131 ± 9 J/(mol·K)
O=C1Nc2cc3[nH]nc(-c4ccncc4)c3cc2CN1Cc1ccccc1,RECIST v1.1,"human, relapsed or refractory advanced solid tumours","intravenous, 3.6 mg/kg",,"complete response, best response",0%
N#Cc1ccn2c(-c3ccncc3)c(-c3ccc(F)cc3)nc2c1,"kinase binding, competitor, MIB/MS competition, measured: RIM8",Candida albicans cell lysate,10 µM,relative to: DMSO,log2 fold change,-0.107
NCC(=O)Nc1cncc(-c2nn3c(=O)cc(N4CCNCC4)nc3s2)c1,"ADP-induced platelet aggregation, light transmission aggregometry","human, stable CAD on aspirin, ex vivo platelets","subcutaneous, 0.05 mg/kg, 30 min post-dose, mean value, together with: ADP 20 µM",,inhibition,71.5%
CC(C)[C@H](C(=O)Nc1ccc(C(=O)NO)cc1)c1ccccc1,volumetric MRI,"human, right anterior meningioma","dose not given, day 373",,tumour volume,0.4 cm3
COc1ccc(-c2cncc(N[C@@H](C)c3cccc(NC(=O)c4cncc(C)c4)c3)n2)cc1OC,measured: rno-miR-93-5p,"rat SU5416/hypoxia model, lung",dose not given,relative to: SU5416/hypoxia vehicle,fold change,1.49
COc1nnc2ccc(N3CCC(c4ccc(OCCN5CCN(C)C(=O)[C@H]5C)cc4)CC3)nn12,,patients,20 mg twice daily,,time HEXIM1 above threshold,12.1 h
Cc1noc(C)c1-c1cc(C(O)(c2ccccn2)c2ccccn2)c2nc(C3CC3)[nH]c2c1,measured: HEXIM1 expression,"human, peripheral blood","4 mg, day 1, 1599 study",,maximum induction,61.4%
CN1CC[C@@H](c2c(O)cc(O)c3c(=O)cc(-c4ccc(C(F)(F)F)cc4Cl)oc23)[C@@H]1CO,,"human, AML, morphologic leukemia-free state","concentration not given, baseline 6%",,bone marrow blasts,4%
C[C@@H](NC(=O)N1C(=O)[C@H](Cc2ccnc(N)c2)[C@H]1C(=O)O)C1CCCCC1,,human,"iv infusion, 0.3 mg/kg/h, 24 h, unit not given",relative to: baseline,ACT AUEC,135
Cn1nnc2c(C(N)=O)ncn2c1=O,,mouse subcutaneous GBM PDX sample C,"subcutaneous, dose not given",,T/C ratio,80%
C[C@]12CC[C@@H]3c4ccc(O)cc4C[C@@H](CCCCCCCCC[S+]([O-])CCCC(F)(F)C(F)(F)F)[C@H]3[C@@H]1CC[C@@H]2O (some centres unmarked),degrader,in vivo preclinical models,"dose not given, monotherapy average",,ER protein reduction,60%
O=P(O)(O)C(Cl)(Cl)P(=O)(O)O,"endothelial activation, immunostaining","Mus musculus, subarachnoid haemorrhage model, cortical capillary endothelium",dose not given,,VCAM-1 level,2.51 MFI
Cn1cc(Nc2nccc(-c3ccc4c(c3)CN(C3COC3)CC[C@H]4NC(=O)c3cn(C(C)(C)C)nn3)n2)cn1,measured: TSP1 angiogenesis inhibition,"splenic B cells, mice","30 mg/kg, IgD-activated in vivo","relative to: vehicle, direction not given",pathway activation z-score,0.447
CC1(C)CCC(c2ccc(Cl)cc2)=C(CN2CCN(c3ccc(C(=O)NS(=O)(=O)c4ccc(N[C@H](CCN5CCOCC5)CSc5ccccc5)c(S(=O)(=O)C(F)(F)F)c4)cc3)CC2)C1,cell kill,"primary neoplastic B cells, dog 24","24 h, unspecified B-cell neoplasm",,EC50,3.9 µM
Oc1ccc(Br)cc1C=NCCN1CCOCC1,nitric oxide scavenging,,200 µM,,inhibition,39.4%
c1ccc(-c2n[nH]cc2-c2ccnc3ccccc23)nc1,"kinase binding, competitor, MIB/MS competition, measured: IKS1",Candida albicans cell lysate,100 nM,relative to: DMSO,log2 fold change,1.27
COC[C@@H](c1ccc(C(F)(F)F)cc1)N1CCN(C2(C)CCN(C(=O)c3c(C)ncnc3C)CC2)C[C@@H]1C,,"HIV-1 infected patients, plasma","10 mg, week 24, with optimized background regimen",relative to: baseline,change in HIV-1 RNA,-2.21 log10 copies/mL
O=C(/C=C/c1ccc(O)c(O)c1/C=C/c1ccc(O)c(O)c1)O[C@H](Cc1ccc(O)c(O)c1)C(=O)O,,isolated myocardial tissue,1 µM,,LVDP,51.5 mmHg
CSCCNc1nc(SCCC(F)(F)F)nc2c1ncn2[C@@H]1O[C@H](COP(=O)(O)OP(=O)(O)C(Cl)(Cl)P(=O)(O)O)[C@@H](O)[C@H]1O,"platelet aggregation, light transmittance aggregometry","human, platelet-rich plasma","dose not given, 15 min, IPA above 90 %, together with: TRAP 15 µM",relative to: patients,patients with IPA above threshold,0%
O=C1N(Cc2ccccc2Cl)c2ccccc2C12NN=C(c1ccccc1)S2 (centres unmarked),,"HL-60 xenograft, mouse","intravenous, 776 mg/kg total, xenograft",relative to: vehicle,T/C,> 100%
[Cl-].[Cl-].[Pt+2].[Ru+2].c1ccc(-c2nc3ccccc3nc2-c2ccccn2)nc1.c1cnc2c(c1)ccc1cccnc12.c1cnc2c(c1)ccc1cccnc12,"chloride substitution, UV-vis kinetics",aqueous buffer,"concentration not given, pH 7.2, second substitution step, together with: L-methionine",,negative activation entropy,174 ± 12 J/(mol·K)
C[C@@H](O)CCOC(=O)C[C@@H](C)O,,human,"oral drink, dose not given, 180 min post dose, median, all participants",,plasma insulin,481 pg/mL
C[C@H](Oc1ccc(Br)cc1-c1ccon1)C(=O)O,MVRC latency,"human, tibialis anterior muscle","1200 mg, SAD",,difference from placebo,0.14 ms
CC(C)NCC(O)c1ccc(O)c(O)c1 (centres unmarked),,"ventricular cardiomyocytes, C57BL/6 mouse","dose not given, 0.264 s",,sarcomere length,1.66 µm
C[C@H](CS)C(=O)N1CCC[C@H]1C(=O)O,,"mouse, unilateral ureteral obstruction, left kidney (obstructed)",dose not given,,fibrosis area,4.36% and 9.77% and 3.9% and 14.6% and 2.6% and 8.88%
C[C@H]1C[C@H]2CSC(N)=N[C@@]2(c2nc(NC(=O)c3ccc(OC(F)F)cn3)cs2)CO1,measured: Aβ1-40,"healthy adults, plasma","40 mg single dose, 8 h post-dose",relative to: placebo,percent change from baseline,-69%
CC(C)C[C@@H](NC(=O)[C@H](C)NC(=O)CNC(=O)[C@@H](NC=O)C(C)C)C(=O)N[C@@H](C)C(=O)N[C@@H](C(=O)N[C@H](C(=O)N[C@@H](C(=O)N[C@@H](Cc1c[nH]c2ccccc12)C(=O)N[C@H](CC(C)C)C(=O)N[C@@H](Cc1ccc2[nH]ccc2c1)C(=O)N[C@H](CC(C)C)C(=O)N[C@@H](Cc1c[nH]c2ccccc12)C(=O)N[C@H](CC(C)C)C(=O)N[C@@H](Cc1c[nH]c2ccccc12)C(=O)NCCO)C(C)C)C(C)C)C(C)C,"H+/Na+ transport, pyranine pH-gradient",EYPC/cholesterol LUVs 2:1,,,EC50,0.0434 ± 0.0121 µM
CN(C(=O)n1cnc(-c2ccc[n+]([O-])c2)c1)C1CCCCC1,measured: PEA,"human, plasma","10 mg once daily, day 10",,AUC(0-tau),129 ng·h/mL

# Repeated from above:
Structure (SMILES),assay,test system,conditions,how to read,measurement,value
Cn1nnc2c(C(N)=O)ncn2c1=O,,mouse subcutaneous GBM PDX sample C,"subcutaneous, dose not given",,T/C ratio,80%
C[C@]12CC[C@@H]3c4ccc(O)cc4C[C@@H](CCCCCCCCC[S+]([O-])CCCC(F)(F)C(F)(F)F)[C@H]3[C@@H]1CC[C@@H]2O (some centres unmarked),degrader,in vivo preclinical models,"dose not given, monotherapy average",,ER protein reduction,60%
O=P(O)(O)C(Cl)(Cl)P(=O)(O)O,"endothelial activation, immunostaining","Mus musculus, subarachnoid haemorrhage model, cortical capillary endothelium",dose not given,,VCAM-1 level,2.51 MFI
Cn1cc(Nc2nccc(-c3ccc4c(c3)CN(C3COC3)CC[C@H]4NC(=O)c3cn(C(C)(C)C)nn3)n2)cn1,measured: TSP1 angiogenesis inhibition,"splenic B cells, mice","30 mg/kg, IgD-activated in vivo","relative to: vehicle, direction not given",pathway activation z-score,0.447
